Measured values from different studies.
Compare with care: the assays were run in different laboratories.
4'-phosphopantetheinyl transferase PptT: 4'-phosphopantetheinyl transferase PptT (Mycobacterium tuberculosis, UniProt O33336)
UniProt O33336, sequence (whole entry, looked up): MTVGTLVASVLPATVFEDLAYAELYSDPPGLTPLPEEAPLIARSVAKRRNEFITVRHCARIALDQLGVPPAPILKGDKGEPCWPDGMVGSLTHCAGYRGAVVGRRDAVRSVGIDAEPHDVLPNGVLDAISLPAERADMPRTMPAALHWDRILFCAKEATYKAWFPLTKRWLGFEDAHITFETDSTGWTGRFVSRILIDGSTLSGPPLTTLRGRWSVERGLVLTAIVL
UniProt P08913, sequence (whole entry, looked up): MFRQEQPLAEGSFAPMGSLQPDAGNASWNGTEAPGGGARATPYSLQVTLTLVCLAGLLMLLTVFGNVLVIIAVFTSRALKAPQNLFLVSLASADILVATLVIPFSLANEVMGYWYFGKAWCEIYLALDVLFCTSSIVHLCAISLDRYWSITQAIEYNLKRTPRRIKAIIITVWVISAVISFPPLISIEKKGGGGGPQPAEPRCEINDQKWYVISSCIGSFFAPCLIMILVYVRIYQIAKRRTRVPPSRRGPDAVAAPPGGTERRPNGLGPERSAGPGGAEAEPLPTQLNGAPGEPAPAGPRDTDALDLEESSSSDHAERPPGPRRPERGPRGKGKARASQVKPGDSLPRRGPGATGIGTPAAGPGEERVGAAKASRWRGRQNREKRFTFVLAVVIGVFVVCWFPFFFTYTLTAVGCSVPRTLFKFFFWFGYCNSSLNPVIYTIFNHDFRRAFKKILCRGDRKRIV
UniProt P32238, sequence (whole entry, looked up): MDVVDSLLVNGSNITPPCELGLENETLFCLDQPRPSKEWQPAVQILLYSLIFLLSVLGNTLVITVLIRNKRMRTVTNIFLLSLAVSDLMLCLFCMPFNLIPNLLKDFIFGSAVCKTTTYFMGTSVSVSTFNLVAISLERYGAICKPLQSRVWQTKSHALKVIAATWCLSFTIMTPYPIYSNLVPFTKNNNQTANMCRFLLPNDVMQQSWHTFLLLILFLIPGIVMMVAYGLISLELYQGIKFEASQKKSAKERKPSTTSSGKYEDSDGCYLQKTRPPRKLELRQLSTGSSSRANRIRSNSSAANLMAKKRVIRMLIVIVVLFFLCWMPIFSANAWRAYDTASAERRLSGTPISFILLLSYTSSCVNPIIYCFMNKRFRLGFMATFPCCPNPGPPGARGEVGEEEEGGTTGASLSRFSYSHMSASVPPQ
UniProt P27037, sequence (whole entry, looked up): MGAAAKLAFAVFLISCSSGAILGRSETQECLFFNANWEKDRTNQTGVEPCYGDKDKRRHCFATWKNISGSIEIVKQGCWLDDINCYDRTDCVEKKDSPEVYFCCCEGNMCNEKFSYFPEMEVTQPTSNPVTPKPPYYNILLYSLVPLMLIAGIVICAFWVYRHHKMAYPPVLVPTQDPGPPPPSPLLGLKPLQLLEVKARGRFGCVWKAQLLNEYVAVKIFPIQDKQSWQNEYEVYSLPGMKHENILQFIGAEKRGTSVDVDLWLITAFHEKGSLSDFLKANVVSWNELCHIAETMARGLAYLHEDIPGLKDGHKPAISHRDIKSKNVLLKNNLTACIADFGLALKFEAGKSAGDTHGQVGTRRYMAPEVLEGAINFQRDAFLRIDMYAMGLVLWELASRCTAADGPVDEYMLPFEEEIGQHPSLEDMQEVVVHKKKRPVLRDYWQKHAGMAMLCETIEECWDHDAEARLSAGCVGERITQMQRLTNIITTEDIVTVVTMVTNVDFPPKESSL
UniProt Q9HAZ1, sequence (whole entry, looked up): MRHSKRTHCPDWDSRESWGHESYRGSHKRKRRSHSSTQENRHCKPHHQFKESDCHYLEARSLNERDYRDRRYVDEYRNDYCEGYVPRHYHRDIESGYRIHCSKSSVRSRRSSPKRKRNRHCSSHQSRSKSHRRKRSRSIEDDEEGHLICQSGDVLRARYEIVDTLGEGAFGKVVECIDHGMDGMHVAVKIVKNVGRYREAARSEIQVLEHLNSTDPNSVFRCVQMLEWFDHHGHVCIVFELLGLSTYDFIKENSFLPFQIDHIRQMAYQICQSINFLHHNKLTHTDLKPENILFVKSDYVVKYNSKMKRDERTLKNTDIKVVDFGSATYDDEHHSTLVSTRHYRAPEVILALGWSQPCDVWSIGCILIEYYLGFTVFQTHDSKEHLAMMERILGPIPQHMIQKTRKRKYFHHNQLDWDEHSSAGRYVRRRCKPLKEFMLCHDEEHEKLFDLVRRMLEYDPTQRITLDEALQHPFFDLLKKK
UniProt P34972, sequence (whole entry, looked up): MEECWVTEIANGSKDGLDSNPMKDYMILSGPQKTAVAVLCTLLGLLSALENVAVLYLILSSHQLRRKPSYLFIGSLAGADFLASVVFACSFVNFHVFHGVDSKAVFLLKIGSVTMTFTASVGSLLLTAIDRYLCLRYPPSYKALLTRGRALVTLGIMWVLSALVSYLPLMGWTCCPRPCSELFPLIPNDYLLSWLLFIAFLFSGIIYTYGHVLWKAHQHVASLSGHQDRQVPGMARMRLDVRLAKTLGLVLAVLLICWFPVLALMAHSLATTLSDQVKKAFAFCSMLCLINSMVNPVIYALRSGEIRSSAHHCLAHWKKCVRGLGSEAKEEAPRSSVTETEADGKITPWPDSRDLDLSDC
UniProt Q99640, sequence (whole entry, looked up): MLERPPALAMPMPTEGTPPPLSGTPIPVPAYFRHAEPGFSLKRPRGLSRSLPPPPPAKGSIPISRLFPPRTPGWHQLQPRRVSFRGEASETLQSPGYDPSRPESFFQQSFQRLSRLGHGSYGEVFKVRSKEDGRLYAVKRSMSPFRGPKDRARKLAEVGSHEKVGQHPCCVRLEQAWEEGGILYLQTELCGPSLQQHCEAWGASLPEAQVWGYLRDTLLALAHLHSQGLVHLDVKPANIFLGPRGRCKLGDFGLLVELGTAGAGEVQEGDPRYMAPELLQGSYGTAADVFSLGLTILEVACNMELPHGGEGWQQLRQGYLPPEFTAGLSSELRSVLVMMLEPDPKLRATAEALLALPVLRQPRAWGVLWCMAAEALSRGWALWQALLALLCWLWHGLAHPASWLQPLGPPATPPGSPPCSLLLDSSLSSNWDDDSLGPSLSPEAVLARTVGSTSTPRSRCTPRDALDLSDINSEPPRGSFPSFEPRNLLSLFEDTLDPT
UniProt P35372, sequence (whole entry, looked up): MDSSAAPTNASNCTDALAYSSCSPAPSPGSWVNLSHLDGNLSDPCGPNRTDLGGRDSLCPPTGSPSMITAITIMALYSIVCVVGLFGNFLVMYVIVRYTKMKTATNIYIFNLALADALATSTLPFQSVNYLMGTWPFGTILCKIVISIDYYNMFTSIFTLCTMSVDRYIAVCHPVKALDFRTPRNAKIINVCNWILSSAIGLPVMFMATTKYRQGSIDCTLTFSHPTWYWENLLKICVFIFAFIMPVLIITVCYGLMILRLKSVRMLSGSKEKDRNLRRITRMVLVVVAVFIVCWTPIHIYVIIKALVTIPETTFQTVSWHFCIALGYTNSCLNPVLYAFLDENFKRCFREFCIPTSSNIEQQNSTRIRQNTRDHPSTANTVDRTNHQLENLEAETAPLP
UniProt Q15349, sequence (whole entry, looked up): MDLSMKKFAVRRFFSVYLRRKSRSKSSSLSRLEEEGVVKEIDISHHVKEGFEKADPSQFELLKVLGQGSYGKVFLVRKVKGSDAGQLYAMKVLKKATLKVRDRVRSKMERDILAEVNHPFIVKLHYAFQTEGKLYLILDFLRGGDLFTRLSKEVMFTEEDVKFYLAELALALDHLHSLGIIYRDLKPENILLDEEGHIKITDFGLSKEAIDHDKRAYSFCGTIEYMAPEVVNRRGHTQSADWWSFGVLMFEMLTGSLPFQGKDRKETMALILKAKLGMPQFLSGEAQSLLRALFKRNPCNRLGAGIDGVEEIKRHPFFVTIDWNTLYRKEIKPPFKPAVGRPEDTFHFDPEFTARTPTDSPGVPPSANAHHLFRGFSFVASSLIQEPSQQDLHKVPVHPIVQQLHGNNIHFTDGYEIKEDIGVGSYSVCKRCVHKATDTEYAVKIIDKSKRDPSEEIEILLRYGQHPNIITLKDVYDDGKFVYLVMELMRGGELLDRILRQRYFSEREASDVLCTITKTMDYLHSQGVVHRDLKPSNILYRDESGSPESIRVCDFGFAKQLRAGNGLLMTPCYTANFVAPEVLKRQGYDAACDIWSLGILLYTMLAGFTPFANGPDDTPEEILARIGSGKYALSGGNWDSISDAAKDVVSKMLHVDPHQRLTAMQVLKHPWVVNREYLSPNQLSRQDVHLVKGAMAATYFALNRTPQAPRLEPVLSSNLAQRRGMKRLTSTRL

The Emax of `CCCCC/C=C\C/C=C\C/C=C\C/C=C\CCCC(=O)OC(CO)CO` is reported as 68% (Cannabinoid receptor 2 (CNR2, Homo sapiens, UniProt P34972); β-arrestin recruitment, agonist).
The remaining binding of `[2H]c1c([2H])c([C@]2([2H])CCCN2C(=O)C(C)(C)Oc2ccc3cn[nH]c3c2)c([2H])c([2H])c1C([2H])([2H])[2H]` is reported as 69% (Death-associated protein kinase 1 (DAPK1, Homo sapiens, UniProt P53355); binding, competition with immobilised ligand; 1 µM).
`O=c1[nH]c2cc(CO)c(Cl)cc2c(=O)n1Cc1cccnc1` gave an IC50 of 32.9 µM (4'-phosphopantetheinyl transferase PptT; enzyme activity, inhibitor, FP).
`C#Cc1n[nH]c2c(-c3cn(C(C)c4ccccn4)c(=O)[nH]c3=O)cc(F)cc12` (centres unmarked) gave an inhibition of 11.2% (Dual specificity protein kinase CLK4 (CLK4, Homo sapiens, UniProt Q9HAZ1); enzyme activity, inhibitor; 1 µM).
`CN1CCC[C@H]1c1cccnc1` gave an inhibition of 6.39% (Alpha-2A adrenergic receptor (ADRA2A, Homo sapiens, UniProt P08913); ligand displacement; 50 µM).
With `NC(=S)c1cncc(Cn2c(=S)[nH]c3cc(CO)c(Cl)cc3c2=O)c1` the IC50 was 0.238 µM (4'-phosphopantetheinyl transferase PptT; enzyme activity, inhibitor, FP).
`COc1ncccc1-c1cnn2ccc(N3CCN(C(=O)OC(C)C)CC3)nc12` gave a remaining binding of 100% (Membrane-associated tyrosine- and threonine-specific cdc2-inhibitory kinase (PKMYT1, Homo sapiens, UniProt Q99640); binding, competition with immobilised ligand; 1 µM).
`CC(C)CC(=O)OC[C@H]1O[C@@](C#N)(c2ccc3c(N)ncnn23)[C@H](O)[C@@H]1O` gave an inhibition of 0% (Cholecystokinin receptor type A (CCKAR, Homo sapiens, UniProt P32238); enzyme activity, inhibitor; 20 µM).
The remaining binding of `Nc1ncc(-c2nc(N3CCOCC3)nc(N3CCOCC3)n2)c(C(F)F)n1` is reported as 100% (Activin receptor type-2A (ACVR2A, Homo sapiens, UniProt P27037); binding, competition with immobilised ligand; 10 µM).
The remaining binding of `Cc1nn(C)cc1-c1nc2c(N3CCN(Cc4ccc(Cl)cc4)CC3)c(Cl)cnc2[nH]1` is reported as 100% (Ribosomal protein S6 kinase alpha-2, N-terminal kinase domain (RPS6KA2, Homo sapiens, UniProt Q15349); binding, competition with immobilised ligand; 1 µM).
With `Oc1cccc(N2[C@@H]3CC[C@H]2CN(CC2CC2)C3)c1` the Emax was 78.6% (Mu-type opioid receptor (OPRM1, Homo sapiens, UniProt P35372); cAMP, agonist; OPRM1).

For quick reference, copied from above:
The remaining binding of `[2H]c1c([2H])c([C@]2([2H])CCCN2C(=O)C(C)(C)Oc2ccc3cn[nH]c3c2)c([2H])c([2H])c1C([2H])([2H])[2H]` is reported as 69% (Death-associated protein kinase 1 (DAPK1, Homo sapiens, UniProt P53355); binding, competition with immobilised ligand; 1 µM).
